Experimental data of several laboratories.
Parts stem from different laboratories: compare values within a part only.
Chain of UniProt Q13237 (whole entry, looked up): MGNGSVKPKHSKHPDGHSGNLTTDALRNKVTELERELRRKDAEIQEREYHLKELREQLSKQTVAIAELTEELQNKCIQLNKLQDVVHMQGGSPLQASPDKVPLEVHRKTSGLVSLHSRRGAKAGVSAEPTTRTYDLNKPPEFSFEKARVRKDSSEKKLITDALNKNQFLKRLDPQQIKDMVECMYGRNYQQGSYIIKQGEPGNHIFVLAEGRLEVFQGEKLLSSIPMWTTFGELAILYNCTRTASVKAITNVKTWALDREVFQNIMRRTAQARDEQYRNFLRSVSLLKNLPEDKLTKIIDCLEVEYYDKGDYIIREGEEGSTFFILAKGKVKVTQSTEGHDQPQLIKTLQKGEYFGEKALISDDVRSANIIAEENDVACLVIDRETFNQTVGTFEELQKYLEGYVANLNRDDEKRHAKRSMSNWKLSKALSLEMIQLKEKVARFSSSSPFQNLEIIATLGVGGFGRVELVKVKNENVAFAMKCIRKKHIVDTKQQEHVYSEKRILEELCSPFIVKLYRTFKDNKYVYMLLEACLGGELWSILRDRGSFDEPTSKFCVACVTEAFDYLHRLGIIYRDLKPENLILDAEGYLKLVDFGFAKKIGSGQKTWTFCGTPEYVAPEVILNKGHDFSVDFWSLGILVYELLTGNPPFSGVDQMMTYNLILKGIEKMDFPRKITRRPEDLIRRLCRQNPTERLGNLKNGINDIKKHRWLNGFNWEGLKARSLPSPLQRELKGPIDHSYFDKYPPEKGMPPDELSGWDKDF
Chain of UniProt P51817 (whole entry, looked up): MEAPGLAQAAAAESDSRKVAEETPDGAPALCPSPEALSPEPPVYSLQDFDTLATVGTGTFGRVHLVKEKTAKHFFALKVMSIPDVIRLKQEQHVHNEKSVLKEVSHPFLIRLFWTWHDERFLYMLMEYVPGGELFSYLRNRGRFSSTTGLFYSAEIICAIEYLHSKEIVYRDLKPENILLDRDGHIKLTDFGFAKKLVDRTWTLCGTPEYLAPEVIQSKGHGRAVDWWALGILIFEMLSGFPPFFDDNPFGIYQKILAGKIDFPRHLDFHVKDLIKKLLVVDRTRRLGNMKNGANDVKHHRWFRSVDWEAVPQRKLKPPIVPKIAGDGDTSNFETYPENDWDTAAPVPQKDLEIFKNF
Chain of UniProt P49760 (whole entry, looked up): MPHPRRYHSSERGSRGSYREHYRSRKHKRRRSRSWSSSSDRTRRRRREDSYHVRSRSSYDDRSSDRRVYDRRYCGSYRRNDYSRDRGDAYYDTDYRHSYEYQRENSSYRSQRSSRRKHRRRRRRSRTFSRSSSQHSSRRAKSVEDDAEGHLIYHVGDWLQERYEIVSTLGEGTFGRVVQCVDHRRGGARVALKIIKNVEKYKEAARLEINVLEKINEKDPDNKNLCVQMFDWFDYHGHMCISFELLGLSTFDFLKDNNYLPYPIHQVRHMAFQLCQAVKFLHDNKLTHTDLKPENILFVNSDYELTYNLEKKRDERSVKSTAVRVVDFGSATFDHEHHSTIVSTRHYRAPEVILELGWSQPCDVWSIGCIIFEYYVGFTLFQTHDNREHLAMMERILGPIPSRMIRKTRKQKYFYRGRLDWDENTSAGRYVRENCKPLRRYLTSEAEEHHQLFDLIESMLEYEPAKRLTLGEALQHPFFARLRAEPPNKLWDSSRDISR

Block 1
Structure (SMILES): COc1cc(C(=O)N2CCC(N3CCN(C)CC3)CC2)ccc1Nc1ncc2c(n1)N(C)c1ccccc1C(=O)N2C
tested on	test	test system	setting	inhibition
mouse CaMK2α/β/δ/γ	probe labelling, KiNativ ADP probe	mouse brain lysate	1 µM, LYS2 site DLkPENLLLASK	-2.1%
	inhibitor, KiNativ profiling, refers to: peptide TSTQEYAAkIINTK	human PBMC lysate	concentration not given, Lys1 site, together with: ATP acyl-phosphate probe	-3.5%
MAP3K2 (mouse)	KiNativ ADP probe	mouse brain tissue	0.1 µM, probe site LYS1	-11.9%
human PBMC	probe labeling, inhibitor, KiNativ profiling	cell lysate	concentration not given, domain 1, LYS2 site, together with: ATP acyl-phosphate probe 0.1 µM	16.4%

Block 2
Target: Ribosomal protein S6 kinase alpha-3 (RPS6KA3, Homo sapiens, UniProt P51812)
Chain of UniProt P51812 (whole entry, looked up): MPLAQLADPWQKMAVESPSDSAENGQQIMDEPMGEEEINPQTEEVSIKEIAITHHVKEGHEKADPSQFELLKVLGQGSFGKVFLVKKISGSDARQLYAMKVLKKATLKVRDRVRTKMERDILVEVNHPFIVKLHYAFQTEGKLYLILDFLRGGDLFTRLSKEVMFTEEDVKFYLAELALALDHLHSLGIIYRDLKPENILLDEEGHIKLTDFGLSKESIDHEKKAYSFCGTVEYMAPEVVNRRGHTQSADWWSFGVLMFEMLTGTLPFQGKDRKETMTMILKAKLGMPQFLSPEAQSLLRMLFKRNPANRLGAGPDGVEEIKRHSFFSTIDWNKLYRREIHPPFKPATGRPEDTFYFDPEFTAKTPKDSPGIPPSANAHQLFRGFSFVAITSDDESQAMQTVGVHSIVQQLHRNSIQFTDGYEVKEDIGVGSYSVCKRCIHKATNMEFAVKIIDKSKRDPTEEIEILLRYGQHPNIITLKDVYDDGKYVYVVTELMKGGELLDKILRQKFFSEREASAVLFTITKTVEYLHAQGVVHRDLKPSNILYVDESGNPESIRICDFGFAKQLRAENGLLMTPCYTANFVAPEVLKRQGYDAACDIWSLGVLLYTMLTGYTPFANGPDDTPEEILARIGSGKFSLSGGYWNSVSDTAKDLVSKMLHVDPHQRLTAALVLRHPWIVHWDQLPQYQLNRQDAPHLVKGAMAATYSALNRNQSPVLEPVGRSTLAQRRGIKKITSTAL
Read-out: enzyme activity
Mode: inhibitor
Concentration: 0.5 µM
Baseline: control
Compound	remaining activity [%]
CO[C@H]1C[C@@H]2CC[C@@H](C)[C@@](O)(O2)C(=O)C(=O)N2CCCC[C@H]2C(=O)O[C@H]([C@H](C)C[C@@H]2CC[C@@H](O)[C@H](OC)C2)CC(=O)[C@H](C)/C=C(\C)[C@@H](O)[C@@H](OC)C(=O)[C@H](C)C[C@H](C)/C=C/C=C/C=C/1C	105
CNC(=O)c1cc(Oc2ccc(NC(=O)Nc3ccc(Cl)c(C(F)(F)F)c3)cc2)ccn1	100
Nc1[nH]nc2nc3ccccc3nc12	88
CCOC(=O)c1c(C)[nH]c(/C=C2\C(=O)Nc3ccccc32)c1C	86.4
Cc1ccc(NC(=O)c2ccc(CN3CCN(C)CC3)cc2)cc1Nc1nc(-c2cccnc2)cs1	93.6
Cc1ccc(Nc2nccc(N(C)c3ccc4c(C)n(C)nc4c3)n2)cc1S(N)(=O)=O	99.1
COc1cc2ncnc(Nc3ccc(Oc4ccccc4)cc3)c2cc1OC	97.8
Oc1ccc(-c2nc(-c3ccncc3)c(-c3ccc(F)cc3)[nH]2)cc1	96.1
O=C(Nc1cccc(Nc2cc(Nc3cccc(C(F)(F)F)c3)ncn2)c1)C1CC1	105
CC(C)[C@H](CO)Nc1nc(Nc2cc(N)cc(Cl)c2)c2ncn(C(C)C)c2n1	54.1
Cc1cccc(-c2[nH]c(C(C)(C)C)nc2-c2ccc3c(c2)OCO3)n1	82.4
Nc1ncnc2n[nH]c(Nc3ccc(F)cc3)c12	89.8
C#Cc1cccc(Nc2ncnc3cc(OCCOC)c(OCCOC)cc23)c1	100
O=C(CCCc1ccc(-c2ccccc2F)cc1)Nc1ccc(O)cc1	95.8
CN(C)c1ccc(C=C2C(=O)Nc3ccccc32)cc1	92.6

Block 3
Target: DNA polymerase theta, ATPase domain (POLQ, Homo sapiens, UniProt O75417)
Chain of UniProt O75417 (whole entry, unmodified, looked up): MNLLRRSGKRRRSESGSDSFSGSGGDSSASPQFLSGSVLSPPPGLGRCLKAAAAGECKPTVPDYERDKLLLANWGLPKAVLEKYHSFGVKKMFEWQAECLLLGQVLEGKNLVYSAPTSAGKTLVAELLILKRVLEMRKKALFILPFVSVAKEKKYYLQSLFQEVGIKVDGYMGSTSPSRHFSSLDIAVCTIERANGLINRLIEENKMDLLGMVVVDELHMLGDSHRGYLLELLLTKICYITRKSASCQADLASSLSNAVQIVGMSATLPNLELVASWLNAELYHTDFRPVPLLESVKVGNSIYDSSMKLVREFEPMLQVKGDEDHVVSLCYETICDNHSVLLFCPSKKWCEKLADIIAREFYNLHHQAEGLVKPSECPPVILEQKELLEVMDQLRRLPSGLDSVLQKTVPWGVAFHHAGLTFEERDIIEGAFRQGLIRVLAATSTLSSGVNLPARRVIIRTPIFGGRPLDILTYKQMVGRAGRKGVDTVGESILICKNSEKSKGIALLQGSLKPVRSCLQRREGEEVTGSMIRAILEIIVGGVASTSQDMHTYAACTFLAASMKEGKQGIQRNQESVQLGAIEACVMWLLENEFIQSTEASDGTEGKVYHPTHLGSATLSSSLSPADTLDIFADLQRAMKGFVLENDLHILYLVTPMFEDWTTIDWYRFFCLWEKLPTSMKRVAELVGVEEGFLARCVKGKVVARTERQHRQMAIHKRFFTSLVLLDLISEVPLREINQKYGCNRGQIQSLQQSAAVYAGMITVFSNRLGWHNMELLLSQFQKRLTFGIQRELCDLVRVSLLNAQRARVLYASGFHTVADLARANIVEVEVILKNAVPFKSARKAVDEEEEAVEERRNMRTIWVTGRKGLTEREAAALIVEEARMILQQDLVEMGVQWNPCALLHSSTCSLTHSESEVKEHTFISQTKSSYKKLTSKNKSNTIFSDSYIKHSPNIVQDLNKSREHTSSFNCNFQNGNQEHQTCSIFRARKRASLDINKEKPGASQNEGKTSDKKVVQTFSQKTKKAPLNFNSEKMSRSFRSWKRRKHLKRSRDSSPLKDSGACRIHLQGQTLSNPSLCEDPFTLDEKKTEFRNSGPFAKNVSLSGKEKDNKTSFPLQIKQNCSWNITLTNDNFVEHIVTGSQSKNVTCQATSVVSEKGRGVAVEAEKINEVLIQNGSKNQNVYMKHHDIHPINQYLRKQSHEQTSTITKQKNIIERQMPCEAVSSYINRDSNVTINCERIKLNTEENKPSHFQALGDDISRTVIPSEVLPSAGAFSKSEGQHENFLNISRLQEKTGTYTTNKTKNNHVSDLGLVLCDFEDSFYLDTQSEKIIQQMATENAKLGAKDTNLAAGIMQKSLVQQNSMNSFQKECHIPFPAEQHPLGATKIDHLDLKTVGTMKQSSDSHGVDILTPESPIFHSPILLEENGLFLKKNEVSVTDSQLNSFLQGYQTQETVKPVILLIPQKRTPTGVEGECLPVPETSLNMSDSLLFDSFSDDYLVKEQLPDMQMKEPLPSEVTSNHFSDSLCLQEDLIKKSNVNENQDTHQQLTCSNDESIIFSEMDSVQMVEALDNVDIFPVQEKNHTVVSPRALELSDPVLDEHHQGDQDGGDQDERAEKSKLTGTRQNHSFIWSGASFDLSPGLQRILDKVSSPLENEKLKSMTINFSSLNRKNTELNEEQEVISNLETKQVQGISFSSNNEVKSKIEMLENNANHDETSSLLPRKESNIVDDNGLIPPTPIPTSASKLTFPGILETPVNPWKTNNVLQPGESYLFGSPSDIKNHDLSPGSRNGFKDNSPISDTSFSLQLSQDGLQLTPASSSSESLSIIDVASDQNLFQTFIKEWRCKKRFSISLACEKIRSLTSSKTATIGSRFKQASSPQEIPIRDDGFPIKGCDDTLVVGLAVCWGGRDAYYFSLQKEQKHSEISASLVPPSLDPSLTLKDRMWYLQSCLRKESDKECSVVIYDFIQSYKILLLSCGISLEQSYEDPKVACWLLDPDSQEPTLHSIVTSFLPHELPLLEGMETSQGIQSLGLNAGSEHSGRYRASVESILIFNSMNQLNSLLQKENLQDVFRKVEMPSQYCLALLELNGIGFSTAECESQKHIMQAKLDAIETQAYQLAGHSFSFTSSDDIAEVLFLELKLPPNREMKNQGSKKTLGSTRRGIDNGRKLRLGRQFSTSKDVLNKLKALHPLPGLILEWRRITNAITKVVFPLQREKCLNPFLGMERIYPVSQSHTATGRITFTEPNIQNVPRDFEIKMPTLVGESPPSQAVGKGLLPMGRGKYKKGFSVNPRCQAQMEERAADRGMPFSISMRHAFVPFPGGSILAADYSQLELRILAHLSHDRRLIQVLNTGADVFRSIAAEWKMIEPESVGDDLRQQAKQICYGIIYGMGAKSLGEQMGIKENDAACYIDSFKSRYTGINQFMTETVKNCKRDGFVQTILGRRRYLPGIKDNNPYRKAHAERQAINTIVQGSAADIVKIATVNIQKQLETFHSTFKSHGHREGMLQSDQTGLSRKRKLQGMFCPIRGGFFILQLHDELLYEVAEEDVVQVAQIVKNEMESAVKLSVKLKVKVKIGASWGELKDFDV
Read-out: enzyme activity
Mode: inhibitor
Concentration: 77 µM
Baseline: untreated
Compound	remaining activity [%]
O=C(C[S+]([O-])Cc1ccco1)NC/C=C\COc1cc(CN2CCCCC2)ccn1 (stereo not shown)	80.4
c1cc(CN2CCCCC2)cc(OCCCNc2nc3ccccc3s2)c1	103
COc1ccc(-c2cc(=O)c3c(OC)c(OC)c(OC)c(OC)c3o2)cc1OC	102
OCc1ccc(-c2ccc(-c3ccc(CO)s3)o2)s1	102

Block 4
Organism: Plasmodium berghei
Mode: inhibitor
Cells: Huh-7
Strain: GFP-expressing, liver stage
Concentration: 10 µM
Time: 24 h
Baseline: untreated control
Structure (SMILES)	infection rate
CC(C)NCC(O)COc1cccc2[nH]ccc12 (stereo not shown)	105%
CS(=O)(=O)c1ccc(C2=C(c3ccccc3)C(=O)OC2)cc1	113%
C[C@]12C=CC(=O)C=C1CC[C@@H]1[C@@H]2[C@@H](O)C[C@@]2(C)[C@H]1CC[C@]2(O)C(=O)COP(=O)(O)O	119%
CO[C@H]1/C=C/O[C@@]2(C)Oc3c(C)c(O)c4c(O)c(c(/C=N/N5CCN(C)CC5)c(O)c4c3C2=O)NC(=O)/C(C)=C\C=C\[C@H](C)[C@H](O)[C@@H](C)[C@@H](O)[C@@H](C)[C@H](OC(C)=O)[C@@H]1C	88.9%

Block 5
SMILES: CN(C)CC#Cc1ccc(OCCCc2sc(N3CCc4cccc(C(=O)Nc5nc6ccccc6s5)c4C3)nc2C(=O)O)c(F)c1
Read-out: cell-free assay
Technique: competition with immobilised ligand
Concentration: 1 µM
target	remaining binding [%]
PRKX (Homo sapiens, UniProt P51817)	98
IRAK3 (Homo sapiens, UniProt Q9Y616)	77
CLK2 (Homo sapiens, UniProt P49760)	83
PRKG2 (Homo sapiens, UniProt Q13237)	86

Repeated from above (block 4):
Structure (SMILES)	infection rate
CO[C@H]1/C=C/O[C@@]2(C)Oc3c(C)c(O)c4c(O)c(c(/C=N/N5CCN(C)CC5)c(O)c4c3C2=O)NC(=O)/C(C)=C\C=C\[C@H](C)[C@H](O)[C@@H](C)[C@@H](O)[C@@H](C)[C@H](OC(C)=O)[C@@H]1C	88.9%
CC(C)NCC(O)COc1cccc2[nH]ccc12 (stereo not shown)	105%
C[C@]12C=CC(=O)C=C1CC[C@@H]1[C@@H]2[C@@H](O)C[C@@]2(C)[C@H]1CC[C@]2(O)C(=O)COP(=O)(O)O	119%
CS(=O)(=O)c1ccc(C2=C(c3ccccc3)C(=O)OC2)cc1	113%
